Results collected from several papers.
Each numbered part is a random draw from the data of one study; scales do not carry over between parts.

Study 1 — technique: RNA Bind-n-Seq; form: RNA; medium: in vitro; tested at: 365 nM; baseline: no-protein control; direction: higher = stronger binding
Target: RNA binding protein fox-1 homolog 2, RRM domain, GST-SBP tag (RBFOX2, Homo sapiens, UniProt O43251-10, residues 100-194)
Setting: natural RNA segment, single round, ends assumed
Construct (chain): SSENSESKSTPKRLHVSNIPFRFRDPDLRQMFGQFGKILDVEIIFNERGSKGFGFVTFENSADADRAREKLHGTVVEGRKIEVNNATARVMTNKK
`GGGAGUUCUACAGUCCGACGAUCAGCUGUCUAAGGUCUCCCGAGGCCUGCUGGUGGUAAAGAAACUGACCUUUUAGGCAGUUUUUCUGCAUUGAUUUCAUGAAAGAAGCUAUACAUUAGCUAAUACUAACCACUGGAAUUCUCGGGUGCCAA`: “RBNS enrichment (R)” 0.578.
`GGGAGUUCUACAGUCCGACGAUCUGUAACGCAUGUAAGAUGCUUAGGGUGCCUGGCCAGGACUCCGUGGUUUCCUGUUGUGACAGUAAUAAUGGUUAUAAUAAUAAAAAUGAUAAAAUUGCCAUCAUUCUAUUUGGAAUUCUCGGGUGCCAA` — result for “RBNS enrichment (R)”: 9.57.
Under “RBNS enrichment (R)”, `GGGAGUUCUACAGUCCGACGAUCUUAAAUAAAGUCAUGAUCAGUGUGCAUUUGUGAUUAUAUGUGUACUCAUUCUCUUACCUAGCGAACAAGAUCUUUUCAGAGUGGUGUUUCUAAAAGAGCAUGUACAAAAGUGGAAUUCUCGGGUGCCAA` is recorded as 0.611.
Under “RBNS enrichment (R)”, `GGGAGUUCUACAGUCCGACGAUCAAAUGUCUGGCAUUUUAAACUUUUGUAGAAUACAUUAUGUUGGACACUGGAAUAAUACUAUUUAUUUUCACCUGUGAAAAAUGACUUCAUUGUACUUGAAACACCUCCUUUGGAAUUCUCGGGUGCCAA` is recorded as 0.511.
`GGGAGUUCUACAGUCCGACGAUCCCAGAACUAAAUUACAUAGAUGAAUACUCCUGCUCCAGUGGCCUGGAUACCAAUCUCUCCUGUCUUUAAUGUUAUUUUCAAAGACUACUCUCAAGAUCCAUUAGCUUUUAUGGAAUUCUCGGGUGCCAA`: “RBNS enrichment (R)” 0.554.
`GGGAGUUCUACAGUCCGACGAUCUCCCAGUUUUGCCACUCUCUGGAGCCAGAUCCUGGGAGCUGUCAGCAAGGAGCAGGUAAGUGAGCAGUUAUGGACAGCACUUUCCAUGUGGUGCUUCCGACCCUGGCUGUUGGAAUUCUCGGGUGCCAA` — result for “RBNS enrichment (R)”: 5.24.
`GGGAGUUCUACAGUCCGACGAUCCUUUGGUUGUAUGAUUUUCUUCUUUUUUAAGAACCCCUGGAAGCAGCGCCUCCUUCAGGGUUGGCUGGGAGCUCGGCCCAUCCACCUCUUGGGGUACCUGCCUCUCUCUCUGGAAUUCUCGGGUGCCAA`: “RBNS enrichment (R)” 0.297.
Under “RBNS enrichment (R)”, `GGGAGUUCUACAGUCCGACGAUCACCGUGAUUAACUCAUAGCUACAUAUCAUUGCAUAAAUGGGAUUUAUCUUUUUUCUCACUUAUUUUUGCGGUGAAAGUCGAGGGCAUGCAAGAGUUUCUCUUCCAGAAGCUGGAAUUCUCGGGUGCCAA` is recorded as 0.748.

Study 2 — technique: RNA Bind-n-Seq; form: RNA; medium: in vitro; tested at: not given; baseline: input RNA pool; direction: higher = stronger binding
Target: RING finger protein unkempt homolog, zinc fingers 1-6, GST-SBP tag (UNK, Homo sapiens, UniProt Q9C0B0, residues 30-357)
Sequence of UniProt Q9C0B0 (30-357, looked up): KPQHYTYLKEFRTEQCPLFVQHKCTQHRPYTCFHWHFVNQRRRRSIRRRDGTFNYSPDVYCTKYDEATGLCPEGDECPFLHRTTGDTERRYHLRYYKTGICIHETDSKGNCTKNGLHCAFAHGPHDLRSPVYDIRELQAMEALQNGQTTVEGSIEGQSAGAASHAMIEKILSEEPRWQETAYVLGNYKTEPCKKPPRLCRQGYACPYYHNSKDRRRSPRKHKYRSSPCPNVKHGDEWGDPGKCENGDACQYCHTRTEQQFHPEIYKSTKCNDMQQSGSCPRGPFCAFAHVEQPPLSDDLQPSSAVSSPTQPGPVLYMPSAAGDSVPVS
Setting: RNA with constant flanks, human-mouse chimeric sites, ends assumed
`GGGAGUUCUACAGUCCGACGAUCCUGUGCGGGUGACUGUCCUGGAGUGGCUGGAGUUCCCGCCGGAGCGCGGCCAGACUAAUUUUAGAAAAUGCCAAGUAGGAAGUUUGUUGAGGGUGAAGUGGUCAGAGGCCGAUGGCCUGGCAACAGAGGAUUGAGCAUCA` has a bound/input enrichment of 1.92 ratio.
For `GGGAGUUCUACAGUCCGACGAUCUUGAAAACAAACUGAUUUAAGUUUGAGUAUCACAAUGUUAGCUUUCUAAUUCCAUAAAAGUACUUGGUUUUUACAGUUUAUAAUCUGACAUCACCCCAGCGCCAUUUGUAAAGAGCAACUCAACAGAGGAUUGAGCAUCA`, the bound/input enrichment was 0.398 ratio.
`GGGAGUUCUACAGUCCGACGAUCUUUGUAUUUAUGCUAAGCACACGUGCUGGUGGUCUGGGCAUCAAUCUUGCGACUGCUGAUGUAGUAAUUUUAUAUGACUCAGAUUGGAAUCCGCAAGUUGAUCUUCAGGCUAUGGACCGUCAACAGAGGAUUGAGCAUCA` has a bound/input enrichment of 0.238 ratio.
`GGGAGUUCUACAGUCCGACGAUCCCUGCUCAGAUCACCAUGAAAGUAAUCCAAGGCUUGUAUAGUGGGGUCACCACAGUGGAACUGGACACCCUGGCUGCUGAGACAGCCGCGACCUUGACUACUAAGCACCCUGACUAUGCCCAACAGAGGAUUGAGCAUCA` has a bound/input enrichment of 0.157 ratio.
`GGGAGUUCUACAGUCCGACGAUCUCUGGUCACACUCGUGUAUAUGGUGUGUGCUUUGUGGACACUUCACUGGGCAAGUUUUUCAUCGGCCAGUUUUCAGAUGACCGCCACUGUUCCAGAUUUAGGACGCUAGUGGCUCACUAUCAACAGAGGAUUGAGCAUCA` has a bound/input enrichment of 0.227 ratio.
`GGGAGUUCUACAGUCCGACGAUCCAGUCCCCGUGUCCCAGUGCAGGACGAUGUGAACAAAAACUCAAAGCGGACCCUCUACUGUAGUUGAUGAUUCUCGAGUGCCAUUAUUAUUGUUUGUCUUUUUUUUUUUUUUUUUAAAGACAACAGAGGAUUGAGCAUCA` has a bound/input enrichment of 1.55 ratio.
`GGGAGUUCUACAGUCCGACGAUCCUGUGACCACAAGAUCCUACCUGAGUGGCAGCUGAAGUUGACUCCCUCUCCUUGCCUGCCUAGUUUCCUUUUGUUCCCCCAUCCCCCAGUGUCGGCUGAGAUGUUGCCUCUGCACGGUUCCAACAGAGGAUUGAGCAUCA` gave a bound/input enrichment of 2.65 ratio.
`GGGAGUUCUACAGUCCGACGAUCGGUGGGGUGGUCAUUGCCGUUUGAGCUCUGCUGAUUCAUGAGUCGCCUUCAAAACUCUCGUGUAGGGUUGACAAUGUGGGGGGGUGGGGGAUCCAGCUUAUUCUUUUUCCCCAGCCCCCACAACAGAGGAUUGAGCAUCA` gave a bound/input enrichment of 3.93 ratio.

Study 3 — technique: RNA Bind-n-Seq; form: RNA; medium: in vitro; tested at: 200 nM; setting: whole 134-nt RNA, ends assumed; added: 150 mM LiCl; baseline: input library; direction: higher = stronger binding; all molecules: 7-deaza-guanosine replaces G
Target: Ras GTPase-activating protein-binding protein 1, full length (G3BP1, Homo sapiens, UniProt Q13283)
Sequence of UniProt Q13283 (whole entry, looked up): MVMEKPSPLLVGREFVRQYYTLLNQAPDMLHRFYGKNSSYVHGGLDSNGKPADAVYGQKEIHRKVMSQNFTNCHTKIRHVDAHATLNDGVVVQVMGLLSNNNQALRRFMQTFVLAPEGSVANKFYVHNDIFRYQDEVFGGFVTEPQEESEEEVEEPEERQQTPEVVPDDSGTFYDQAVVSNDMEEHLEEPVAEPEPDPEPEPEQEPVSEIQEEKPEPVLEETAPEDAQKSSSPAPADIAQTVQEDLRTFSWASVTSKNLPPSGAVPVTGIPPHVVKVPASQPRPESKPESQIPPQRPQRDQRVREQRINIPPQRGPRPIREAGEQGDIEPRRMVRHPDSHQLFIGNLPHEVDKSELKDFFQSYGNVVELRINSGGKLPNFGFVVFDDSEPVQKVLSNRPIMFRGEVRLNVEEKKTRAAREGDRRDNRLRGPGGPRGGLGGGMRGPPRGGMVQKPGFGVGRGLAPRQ
For `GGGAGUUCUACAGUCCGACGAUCCAAGUCCUGUGCUACACAUCGUAUGUACCGAAUCGGCCCCGGGCCCCGGGCCCCGGAAAGUAUUAUGUUACGCCGUUCGGAUCUGCACUUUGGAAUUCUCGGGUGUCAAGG`, the log2 enrichment was -0.6.
`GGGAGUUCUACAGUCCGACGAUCAAGUCCUGUGCUACACAUCGUAUGUACCGAAUCGGUGGUUUUUUUGGAAAAAAAGGAAAGUAUUAUGUUACGCCGUUCGGAUCUGCACUUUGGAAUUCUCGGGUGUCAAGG` has a log2 enrichment of -1.13.
With `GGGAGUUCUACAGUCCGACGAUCUGGGAGGUGGAUUUUGUUUAUUUUUUUAGCUCAUUUCCAGGUGUGGGAAUUUUUUUUUAAUAUGUGUCAUGAAUAAAGUUGUUUUUGAAAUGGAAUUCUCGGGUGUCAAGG` the log2 enrichment was -0.658.
`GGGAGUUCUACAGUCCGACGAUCUCCUCAAGUCCUGUGCUACACAUCGUAUGUACCGAAUCGGUGGUGGUUUGGAAAGUAUUAUGUUACGCCGUUCGGAUCUGCACUUCCAGCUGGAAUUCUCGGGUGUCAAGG` gave a log2 enrichment of 0.555.
With `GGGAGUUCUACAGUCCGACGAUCUGGCCCUGGUGGCAUGCGGGGAGGAAGAGGUGGCCUCAUGGAUCGUGGUGGUCCCGGUGGAAGGUUCAGAGGUGGCCGUGGUGGAGACAGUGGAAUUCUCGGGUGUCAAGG` the log2 enrichment was 0.377.
The log2 enrichment of `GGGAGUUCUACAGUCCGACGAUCCCUGUGCUACACAUCGUAUGUACCGAAUCGGAAAAAAAGGGAAAAAAAGGGGAAAAAAAGGAAAGUAUUAUGUUACGCCGUUCGGAUCUGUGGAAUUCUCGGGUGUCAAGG` is reported as -0.0524.
For `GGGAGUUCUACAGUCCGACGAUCUGGCCCUGGUGGCAUGCGGGGAGGAAGCGGUGGCCUCAUGGAUCGUGGUGGUCCCGGUGGAAUGUUCAGAGGUGGCCGUGGUGGAGACAGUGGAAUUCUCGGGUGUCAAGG`, the log2 enrichment was 0.296.
For `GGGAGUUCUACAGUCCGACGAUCUGGGAGGUGGAUUUCGUUUAUUUUUUUAGCUCAUUUCCAGGGGUGGGAAUUUUUUUUUAAUAUGUGUCAUGAAUAAAGUUGUUUUUGAAAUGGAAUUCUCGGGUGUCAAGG`, the log2 enrichment was 0.0499.

Study 4 — technique: protein binding microarray; form: double-stranded DNA, one strand shown; medium: in vitro; tested at: not given; baseline: not given; direction: higher = stronger binding
Target: Histone acetyltransferase KAT6A, winged helix 1, GST fusion (KAT6A, Homo sapiens, UniProt Q92794, residues 1-85)
Setting: 8-mer, flanks averaged, mean of 2 arrays, mostly near background
Residues (chain): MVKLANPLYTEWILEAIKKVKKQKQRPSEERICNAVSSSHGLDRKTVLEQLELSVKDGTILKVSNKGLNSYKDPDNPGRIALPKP
For `ACTGCCTG`, the E-score was -0.113.
With `ACAACTAA` the E-score was -0.0659.
The E-score of `GTTATGTA` is reported as -0.0179.
`ATTTGTCG` has an E-score of -0.101.
`ATCCTATC` has an E-score of 0.00084.
`ATCAGTTA` has an E-score of -0.103.
`AGCGCACA` gave an E-score of 0.14.
The E-score of `TCTAACAA` is reported as -0.119.
With `ACAGGCGT` the E-score was -0.0564.
`GCGGCCGC` has an E-score of 0.485.
For `AAGGTAAC`, the E-score was -0.0313.
With `CCGTCTAA` the E-score was 0.0667.
With `ACCAGCTC` the E-score was -0.161.
With `ACAGGGTA` the E-score was -0.138.
`CCATGTCC` gave an E-score of -0.00233.
For `CCCAAGAA`, the E-score was -0.179.

Study 5 — technique: universal PBM; form: double-stranded DNA, one strand shown; medium: in vitro; tested at: not given; direction: higher = stronger binding
Target: Sal-like protein 4, full length isoform B (SALL4, Homo sapiens, UniProt Q9UJQ4-2, residues 1-616)
Setting: 8-mer, flanks averaged, mean of replicates
`CGAGGTAC` gave an E-score of -0.131.
For `AGTACCAA`, the E-score was 0.0685.
`CTACTAAC` has an E-score of 0.0909.
`GAATCTTA` gave an E-score of 0.134.
`ACTCATAG` gave an E-score of 0.0877.
The E-score of `CGGATTAC` is reported as -0.0112.
`AATACGTA` has an E-score of 0.277.
For `CACACATA`, the E-score was 0.222.
The E-score of `GCCAATTA` is reported as 0.161.
With `GGCTTGCA` the E-score was -0.154.
`GTCGAAGA` has an E-score of -0.0309.
`ACACGTAG` gave an E-score of -0.0103.
`GAACGAGA` has an E-score of -0.0149.
`CATGCTTC` has an E-score of 0.0214.
`AAGACTAT` gave an E-score of 0.144.
With `AGGGTAAA` the E-score was 0.117.
`AGGGGAGG` gave an E-score of -0.168.

Repeated from above (study 4):
`ATCCTATC` has an E-score of 0.00084.
`ATCAGTTA` has an E-score of -0.103.
`AGCGCACA` gave an E-score of 0.14.
The E-score of `TCTAACAA` is reported as -0.119.
With `ACAGGCGT` the E-score was -0.0564.
`GCGGCCGC` has an E-score of 0.485.
For `AAGGTAAC`, the E-score was -0.0313.
With `CCGTCTAA` the E-score was 0.0667.
